Published values gathered from unrelated publications.
Each numbered part is a random draw from the data of one study; scales do not carry over between parts. Positions count from the first letter of the parent shown.

Block 1 — method: RNA Bind-n-Seq; form: RNA; matrix: in vitro; tested at: not given; reference: input RNA pool; direction: higher = stronger binding
Target: RING finger protein unkempt homolog, zinc fingers 1-6, GST-SBP tag (UNK, Homo sapiens, UniProt Q9C0B0, residues 30-357)
Chain of UniProt Q9C0B0 (30-357, looked up): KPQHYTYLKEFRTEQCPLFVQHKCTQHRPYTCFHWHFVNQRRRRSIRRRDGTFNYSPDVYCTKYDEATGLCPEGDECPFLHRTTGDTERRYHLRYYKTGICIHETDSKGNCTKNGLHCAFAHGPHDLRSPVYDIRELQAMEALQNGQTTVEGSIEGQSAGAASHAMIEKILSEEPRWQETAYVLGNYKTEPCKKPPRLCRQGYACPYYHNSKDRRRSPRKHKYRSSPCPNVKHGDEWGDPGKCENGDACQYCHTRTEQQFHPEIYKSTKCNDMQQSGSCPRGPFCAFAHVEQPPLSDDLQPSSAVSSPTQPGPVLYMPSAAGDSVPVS
Setting: RNA with constant flanks, human-mouse chimeric sites, ends assumed
Constant ends, left off below: GGGAGUUCUACAGUCCGACGAUC … CAACAGAGGAUUGAGCAUCA
| Strand | bound/input enrichment [ratio] |
| --- | --- |
| AUUGUUGAAGCGAAUCCACUUUUAGAAGCAUUUGGAAAUGCAAAGACUGUUCGCAACAAUAAUAGCAGUCGAUUUGGGAAAUUUGUAGAAAUUCAUUUCAAUGAAAAGAGCUCAGUUGUU | 0.309 |
| UCGGAUGAGGUGCUGGGUCACUUUUCAUAUCCAGAUCCUUCACAGUGGACAGAUGAAGAACUGGGAAUCCCUCCUGAUGACGAGGACUGACACUGUAAACUCUCUGGCACUCUGUACGCA | 0.374 |
| UUAAACACCAAGCUGAUGGACUCUGAUGGCCUCCAUCUCUCAGGCACGUGUGCCUUCUCUUAGUCCCUUCUGGGUUGAUGUUAUGAAUCUCAGUACUGUGGUUUGAAAGCACCAGCUUUG | 0.423 |
| AUAGAUGAAAUUGAUGUGGACCAGGAAGGAAUUGCAGAAAUGAUCCUGGAUGAAAAUGCUAUUGCUCAGGUCCCACGCCCUGGCACAUCUUUGAAGCUCCCUGGCACUAAUCAGACAGGA | 0.258 |
| CCUCCCCCGGGCCACCCACCCCUCCCGGCUCCCCGCCGAGAUCCAGGUUUCUUCUUAUUUCAUAGCAAAUAAGAAAAAUGUUCUACGCACAUUUUGUCCUCAGUAAAAGAGGGCCUCUGG | 1.26 |
| UCUGGUCACACUCGUGUAUAUGGUGUGUGCUUUGUGGACACUUCACUGGGCAAGUUUUUCAUCGGCCAGUUUUCGGAUGAUCGCCAUUGUUCCAGAUUUAGGACGCUAGUGGCUCACUAU | 0.308 |
| UCCCAAAUUAUAAGGCAAGAAGGAGCCUUGAGACAAACACUCCACACACAGGGAAGGCGAUAACAUUGUACAUUGGUUUACAUUUUUUCCCCCUGUGGAUUUUUCUAGAGGUCAUAGUGC | 0.397 |

Block 2 — target: CCNB3, cyclin fold, Cln2 fusion (human); method: yeast growth competition, sequencing; matrix: yeast; setting: weak parent motif; reference: not given; direction: higher = stronger binding
Starting sequence: ASZ1 docking peptide (human); GFGFLLFICKLTF
| Variant | normalised enrichment score |
| --- | --- |
| C9A | 0.248 |
| G3A | 0.269 |
| F4A | 0.367 |
| F2A | 0.0414 |
| L11A | 0.224 |
| L6A | 0.342 |

Block 3 — method: DHFR PCA, deep sequencing; matrix: yeast; added: (+)-ABA 200 µM; reference: wild-type fitted maximum; direction: higher = stronger binding
Target: ABI1, truncated, D143A, DHFR fusion (Arabidopsis thaliana)
Setting: methotrexate growth selection, single substitutions
Starting sequence: PYL1, truncated, DHFR fusion (Arabidopsis thaliana); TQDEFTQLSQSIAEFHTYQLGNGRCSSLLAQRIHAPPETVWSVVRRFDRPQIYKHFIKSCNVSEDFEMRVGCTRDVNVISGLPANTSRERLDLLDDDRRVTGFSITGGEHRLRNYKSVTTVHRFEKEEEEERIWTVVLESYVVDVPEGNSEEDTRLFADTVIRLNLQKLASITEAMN
| Variant | relative binding score [%] |
| --- | --- |
| D95V | 52.8 |
| D96E | 108 |
| A84T | 31.3 |
| P83Y | 14.8 |
| R45N | 50.8 |
| K126Q | 104 |

Other studies, line by line
| Substance | target | assay | test system | setting | scale | endpoint | result |
| --- | --- | --- | --- | --- | --- | --- | --- |
| PhoQ, residues 284 288 289 292 302 303 AGHLVA | PhoP, residues 12 14 15 18 19 LHSVW (Escherichia coli, UniProt P23836) | Sort-seq, refers to: YFP reporter | E. coli | PhoQ-PhoP variant library, added: 10 µM Mg2+ | reference: high Mg2+ state, higher = stronger signaling | fold induction | 1.5 |

A few entries again (block 1):
| Strand | bound/input enrichment [ratio] |
| --- | --- |
| AUUGUUGAAGCGAAUCCACUUUUAGAAGCAUUUGGAAAUGCAAAGACUGUUCGCAACAAUAAUAGCAGUCGAUUUGGGAAAUUUGUAGAAAUUCAUUUCAAUGAAAAGAGCUCAGUUGUU | 0.309 |
| UCGGAUGAGGUGCUGGGUCACUUUUCAUAUCCAGAUCCUUCACAGUGGACAGAUGAAGAACUGGGAAUCCCUCCUGAUGACGAGGACUGACACUGUAAACUCUCUGGCACUCUGUACGCA | 0.374 |
| UUAAACACCAAGCUGAUGGACUCUGAUGGCCUCCAUCUCUCAGGCACGUGUGCCUUCUCUUAGUCCCUUCUGGGUUGAUGUUAUGAAUCUCAGUACUGUGGUUUGAAAGCACCAGCUUUG | 0.423 |
